Measured values gathered from unrelated publications.
Each numbered part is a random draw from the data of one study; scales do not carry over between parts. “And” joins repeats or separate records; there may be more than shown.
UniProt P31749, sequence (whole entry, looked up): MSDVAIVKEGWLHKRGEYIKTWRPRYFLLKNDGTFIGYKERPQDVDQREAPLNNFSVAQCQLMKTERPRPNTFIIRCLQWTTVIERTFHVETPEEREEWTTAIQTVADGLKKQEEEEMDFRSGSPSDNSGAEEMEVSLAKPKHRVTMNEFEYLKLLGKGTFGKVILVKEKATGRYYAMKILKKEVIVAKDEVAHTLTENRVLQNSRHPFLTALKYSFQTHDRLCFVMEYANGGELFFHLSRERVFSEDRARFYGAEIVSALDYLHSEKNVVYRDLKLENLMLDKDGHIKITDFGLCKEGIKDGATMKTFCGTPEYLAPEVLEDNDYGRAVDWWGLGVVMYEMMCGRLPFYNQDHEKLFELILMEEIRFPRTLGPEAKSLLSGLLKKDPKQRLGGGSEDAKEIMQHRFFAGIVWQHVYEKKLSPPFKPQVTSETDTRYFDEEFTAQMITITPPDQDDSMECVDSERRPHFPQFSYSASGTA
UniProt Q16566, sequence (whole entry, looked up): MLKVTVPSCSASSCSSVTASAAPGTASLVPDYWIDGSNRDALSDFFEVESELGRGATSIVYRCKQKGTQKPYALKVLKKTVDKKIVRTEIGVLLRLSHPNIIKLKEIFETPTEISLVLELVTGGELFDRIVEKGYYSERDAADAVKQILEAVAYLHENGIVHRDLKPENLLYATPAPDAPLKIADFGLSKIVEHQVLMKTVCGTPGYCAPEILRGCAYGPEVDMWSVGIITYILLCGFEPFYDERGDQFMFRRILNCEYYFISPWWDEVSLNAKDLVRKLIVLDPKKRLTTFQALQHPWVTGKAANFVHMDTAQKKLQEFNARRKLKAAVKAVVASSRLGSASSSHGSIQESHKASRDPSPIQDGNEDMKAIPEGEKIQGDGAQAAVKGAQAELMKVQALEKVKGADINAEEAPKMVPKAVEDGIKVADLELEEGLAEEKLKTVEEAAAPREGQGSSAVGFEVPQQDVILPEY
UniProt P50613, sequence (whole entry, looked up): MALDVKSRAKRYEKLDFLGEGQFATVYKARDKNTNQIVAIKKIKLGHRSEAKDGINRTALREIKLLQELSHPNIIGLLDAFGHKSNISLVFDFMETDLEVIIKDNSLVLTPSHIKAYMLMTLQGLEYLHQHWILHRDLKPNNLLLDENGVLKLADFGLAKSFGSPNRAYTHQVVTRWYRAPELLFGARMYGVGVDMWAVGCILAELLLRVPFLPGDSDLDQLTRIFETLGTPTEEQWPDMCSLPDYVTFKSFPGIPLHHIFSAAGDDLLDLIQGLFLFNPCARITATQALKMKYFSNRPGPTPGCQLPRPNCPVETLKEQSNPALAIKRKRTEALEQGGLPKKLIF
UniProt P22607, sequence (whole entry, unmodified, looked up): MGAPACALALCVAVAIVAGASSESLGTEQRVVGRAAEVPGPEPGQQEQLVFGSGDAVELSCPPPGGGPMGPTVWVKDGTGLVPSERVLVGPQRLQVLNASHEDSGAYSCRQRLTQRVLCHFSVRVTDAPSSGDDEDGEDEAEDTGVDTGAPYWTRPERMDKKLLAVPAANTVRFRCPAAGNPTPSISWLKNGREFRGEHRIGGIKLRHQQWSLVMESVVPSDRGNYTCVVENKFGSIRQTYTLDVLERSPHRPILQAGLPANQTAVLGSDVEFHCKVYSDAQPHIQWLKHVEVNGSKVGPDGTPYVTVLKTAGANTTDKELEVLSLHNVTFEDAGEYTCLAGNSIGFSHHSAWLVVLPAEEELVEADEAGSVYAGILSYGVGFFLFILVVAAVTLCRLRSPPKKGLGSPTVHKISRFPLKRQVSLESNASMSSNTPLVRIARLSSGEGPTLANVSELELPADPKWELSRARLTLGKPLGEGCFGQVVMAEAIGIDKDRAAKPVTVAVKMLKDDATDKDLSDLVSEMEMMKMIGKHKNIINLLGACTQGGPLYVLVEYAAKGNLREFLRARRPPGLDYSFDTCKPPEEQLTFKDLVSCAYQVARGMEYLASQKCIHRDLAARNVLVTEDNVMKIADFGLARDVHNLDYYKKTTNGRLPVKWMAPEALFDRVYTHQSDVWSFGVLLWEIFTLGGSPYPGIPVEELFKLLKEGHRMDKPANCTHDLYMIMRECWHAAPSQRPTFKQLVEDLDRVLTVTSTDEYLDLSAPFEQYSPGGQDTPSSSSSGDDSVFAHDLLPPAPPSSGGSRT
UniProt Q8IW41, sequence (whole entry, looked up): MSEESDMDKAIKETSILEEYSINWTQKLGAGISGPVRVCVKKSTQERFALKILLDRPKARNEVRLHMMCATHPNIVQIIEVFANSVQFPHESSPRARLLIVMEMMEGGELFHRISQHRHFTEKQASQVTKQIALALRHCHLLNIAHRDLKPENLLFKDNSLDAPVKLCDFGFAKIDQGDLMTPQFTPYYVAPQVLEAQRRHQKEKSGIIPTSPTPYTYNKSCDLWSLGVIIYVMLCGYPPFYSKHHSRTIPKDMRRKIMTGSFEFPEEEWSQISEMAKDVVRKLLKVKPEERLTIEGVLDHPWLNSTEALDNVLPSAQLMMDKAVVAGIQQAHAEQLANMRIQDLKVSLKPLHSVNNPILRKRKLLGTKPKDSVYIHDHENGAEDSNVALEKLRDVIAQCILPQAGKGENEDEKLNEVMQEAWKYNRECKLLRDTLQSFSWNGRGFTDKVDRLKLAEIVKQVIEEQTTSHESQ
UniProt Q92630, sequence (whole entry, looked up): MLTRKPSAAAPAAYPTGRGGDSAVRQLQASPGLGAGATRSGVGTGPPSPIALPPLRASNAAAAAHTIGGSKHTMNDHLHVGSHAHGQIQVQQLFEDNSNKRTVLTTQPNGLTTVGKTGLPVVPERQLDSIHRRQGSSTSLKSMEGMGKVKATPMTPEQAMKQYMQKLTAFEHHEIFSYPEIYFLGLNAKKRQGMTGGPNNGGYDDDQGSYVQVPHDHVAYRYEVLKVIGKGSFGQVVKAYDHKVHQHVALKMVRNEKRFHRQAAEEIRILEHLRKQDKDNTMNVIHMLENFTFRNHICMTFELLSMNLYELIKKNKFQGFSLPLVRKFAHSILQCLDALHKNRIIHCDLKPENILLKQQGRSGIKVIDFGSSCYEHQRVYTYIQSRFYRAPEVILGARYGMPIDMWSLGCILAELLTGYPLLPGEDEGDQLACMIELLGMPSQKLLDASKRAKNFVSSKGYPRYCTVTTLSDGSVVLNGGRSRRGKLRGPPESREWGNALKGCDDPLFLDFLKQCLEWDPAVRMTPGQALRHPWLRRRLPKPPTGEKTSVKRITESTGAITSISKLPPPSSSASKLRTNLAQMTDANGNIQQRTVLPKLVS
UniProt P00519, sequence (whole entry, unmodified, looked up): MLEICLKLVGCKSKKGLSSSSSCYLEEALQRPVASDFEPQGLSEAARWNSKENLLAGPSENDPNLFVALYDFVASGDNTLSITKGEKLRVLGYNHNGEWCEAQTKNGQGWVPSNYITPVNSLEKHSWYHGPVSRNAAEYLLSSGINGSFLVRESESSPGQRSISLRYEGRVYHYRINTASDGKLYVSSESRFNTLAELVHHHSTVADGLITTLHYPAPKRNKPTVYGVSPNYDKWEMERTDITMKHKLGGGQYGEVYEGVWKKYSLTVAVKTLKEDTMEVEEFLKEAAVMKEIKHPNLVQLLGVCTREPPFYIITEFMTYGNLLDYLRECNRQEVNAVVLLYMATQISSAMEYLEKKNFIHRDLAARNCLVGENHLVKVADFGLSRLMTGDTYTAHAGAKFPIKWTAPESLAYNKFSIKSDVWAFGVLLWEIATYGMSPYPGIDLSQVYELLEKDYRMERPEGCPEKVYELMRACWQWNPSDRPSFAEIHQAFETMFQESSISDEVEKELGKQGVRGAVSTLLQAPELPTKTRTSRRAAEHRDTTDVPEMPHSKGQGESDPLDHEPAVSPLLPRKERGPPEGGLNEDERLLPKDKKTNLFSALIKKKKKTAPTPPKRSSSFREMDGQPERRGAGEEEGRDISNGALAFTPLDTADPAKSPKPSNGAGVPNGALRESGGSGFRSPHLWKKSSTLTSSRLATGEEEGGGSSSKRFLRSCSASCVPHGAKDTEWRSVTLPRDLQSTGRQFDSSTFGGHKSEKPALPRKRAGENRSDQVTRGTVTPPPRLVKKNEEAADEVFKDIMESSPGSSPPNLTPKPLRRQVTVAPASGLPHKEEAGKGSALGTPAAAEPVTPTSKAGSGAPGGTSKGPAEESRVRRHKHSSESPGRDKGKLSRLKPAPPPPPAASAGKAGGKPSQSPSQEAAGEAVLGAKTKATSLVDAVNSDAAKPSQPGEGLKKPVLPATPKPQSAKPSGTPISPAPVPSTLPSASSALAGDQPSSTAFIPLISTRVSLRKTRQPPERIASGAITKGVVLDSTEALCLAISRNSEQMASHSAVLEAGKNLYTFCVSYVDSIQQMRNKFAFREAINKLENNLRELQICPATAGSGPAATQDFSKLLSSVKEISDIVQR

Series 1 — observed: binding; technique: competition with immobilised ligand; concentration: 1 µM
SMILES: COc1cc(-c2nc3ccc(C(=O)NCCCN(C)C)cc3n2C2CCC2)cc(OC)c1OC
For DYRK2 (Homo sapiens, UniProt Q92630): remaining binding read 81%.
Tyrosine-protein kinase ABL1, phosphorylated (ABL1, Homo sapiens, UniProt P00519, E255K) — remaining binding: 61%.
CAMK4 (Homo sapiens, UniProt Q16566) — remaining binding: 100%.
For AKT1 (Homo sapiens, UniProt P31749): remaining binding read 100%.
MAP3K20 (Homo sapiens, UniProt Q9NYL2) — remaining binding: 96%.
It gave 84% for remaining binding (MAPKAPK5 (Homo sapiens, UniProt Q8IW41)).
It gave 90% for remaining binding (FGFR3 (Homo sapiens, UniProt P22607, G697C)).
CDK7 (Homo sapiens, UniProt P50613) — remaining binding: 84%.

Series 2 — observed: binding; technique: HTRF
Compound: Cc1ccc(O)c(C)c1-c1cnc2[nH]c(-c3cnc(N4CCC(CCN5CCN(c6ccc7c(c6)C(=O)N(C6CCC(=O)NC6=O)C7=O)CC5)CC4)nc3)cc2c1C#N (racemic)
Target: Membrane-associated tyrosine- and threonine-specific cdc2-inhibitory kinase (PKMYT1, Homo sapiens, UniProt Q99640)
UniProt Q99640, sequence (whole entry, looked up): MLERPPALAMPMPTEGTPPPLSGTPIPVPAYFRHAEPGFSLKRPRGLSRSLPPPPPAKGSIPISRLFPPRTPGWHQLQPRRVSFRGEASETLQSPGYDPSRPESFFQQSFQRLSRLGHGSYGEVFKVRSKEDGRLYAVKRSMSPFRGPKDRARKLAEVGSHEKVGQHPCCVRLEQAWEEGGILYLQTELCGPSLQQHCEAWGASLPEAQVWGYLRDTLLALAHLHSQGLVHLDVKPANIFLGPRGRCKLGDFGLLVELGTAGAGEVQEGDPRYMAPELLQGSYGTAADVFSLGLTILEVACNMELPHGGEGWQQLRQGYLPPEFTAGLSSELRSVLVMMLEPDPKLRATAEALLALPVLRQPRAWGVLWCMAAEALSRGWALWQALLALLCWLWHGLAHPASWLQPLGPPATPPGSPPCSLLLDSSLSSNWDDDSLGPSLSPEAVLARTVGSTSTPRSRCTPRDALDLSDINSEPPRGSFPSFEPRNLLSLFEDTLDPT
It gave 4.88% and 5.04% for inhibition (0.15 nM).
111.11 nM — inhibition: 98.9% and 98.1%.
For 1000 nM: inhibition read 99.2% and 99.7%.
1.37 nM — inhibition: 15.1% and 15.4%.

Series 3 — host: mice, male and female, formalin pain; route: intrathecal; with: formalin 5%, 20 µL intraplantar; direction: higher = more pain
SMILES: COc1cc(C(=O)OCCCN2CCCN(CCCOC(=O)c3cc(OC)c(OC)c(OCc4ccc([N+](=O)[O-])cc4)c3)CC2)cc(OC)c1OC
It gave 32.4 a.u. and 11.3 a.u. and 22.7 a.u. and 11.8 a.u. and 87.5 a.u. and 49.9 a.u. and 54.5 a.u. and 40.5 a.u. for “licking and flinching time” (1 nmol, 15-20 min after formalin).
It gave 51.1 a.u. and 20.9 a.u. and 99.9 a.u. and 41.7 a.u. and 43.1 a.u. and 24.7 a.u. and 2.56 a.u. and 1.24 a.u. for “licking and flinching time” (10 nmol, 30-35 min after formalin).
1 nmol, 0-10 min — “licking and flinching time”: 195 a.u. and 196 a.u. and 268 a.u. and 203 a.u. and 206 a.u. and 207 a.u. and 170 a.u. and 281 a.u.
For 100 nmol, 0-10 min: “licking and flinching time” read 157 a.u. and 162 a.u. and 195 a.u. and 180 a.u. and 196 a.u. and 191 a.u. and 193 a.u. and 152 a.u.
It gave 56.8 a.u. and 66.4 a.u. and 13 a.u. and 16.3 a.u. and 96.4 a.u. and 159 a.u. and 92.2 a.u. and 50.2 a.u. for “licking and flinching time” (1 nmol, 20-25 min after formalin).

Mixed results
`Cn1cc(-c2cccc(CN3CCC4(CC3)COc3c4ccc4c3CN([C@H]3CCC(=O)NC3=O)C4=O)c2)cn1`: “terminal volume of distribution” 13.8 L/kg (cynomolgus monkeys; intravenous, 1.00 mg/kg).

For quick reference, copied from above (series 3):
1 nmol, 0-10 min — “licking and flinching time”: 195 a.u. and 196 a.u. and 268 a.u. and 203 a.u. and 206 a.u. and 207 a.u. and 170 a.u. and 281 a.u.
It gave 51.1 a.u. and 20.9 a.u. and 99.9 a.u. and 41.7 a.u. and 43.1 a.u. and 24.7 a.u. and 2.56 a.u. and 1.24 a.u. for “licking and flinching time” (10 nmol, 30-35 min after formalin).
